Experimental data pooled from the literature.
Compare with care: the assays were run in different laboratories. Values joined by “and” are separate records of one study, mostly repeats; a detail may differ. Numbers after ± are the reported error.
Cell line: HeLa

C#CCCCC[C@H](C)C[C@@H](C)C(=O)N[C@@H](C)C(=O)N1CCC[C@H]1C(=O)N[C@H](C(=O)N[C@H](C(=O)N[C@H](C(=O)N[C@@H](Cc1ccccc1)C(=O)N1CCC[C@H]1C(=O)N1CCC[C@H]1C(C)=O)C(C)C)C(C)C)C(C)C  IC50 (cell growth or viability, SRB): 39 µM
COc1ccc([N+]#[C][Re]2(=[C]=O)(=[C]=O)(=[C]=O)[N]3C(C)=CC=c4ccc5c(c43)[N]2C(C)=CC=5)cc1.O=S(=O)([O-])C(F)(F)F  IC50 (cell growth or viability, MTT; 48 h): 5 µM
Cc1nn(-c2ccccc2)c(O)c1C(c1ccc(N(C)C)cc1)c1c(C)nn(-c2ccccc2)c1O  IC50 (cell growth or viability, MTT; 48 h): 39.3 µM
C[C@H]1[C@H](OCCc2ccc(O)cc2)O[C@@H]2O[C@@]3(C)CC[C@H]4[C@H](C)CC[C@@H]1[C@@]24OO3  IC50 (cell growth or viability, MTT): 2.73 µM
C[C@H]1O[C@@H](O[C@H]2CC[C@@]3(C)[C@H](CC[C@@H]4[C@@H]3CC[C@]3(C)[C@@H](C5=CC(=O)OC5)[C@@H](O)C[C@]43O)C2)C[C@H](O)[C@@H]1O[C@@H]1O[C@H](CO)[C@@H](O)[C@H](O)[C@H]1O  IC50 (cell growth or viability, MTT; 48 h): 0.16 µM
CC(C)C[C@H](NC(=O)[C@H](CCCCN)NC(=O)[C@H](CC(C)C)NC(=O)[C@H](CC(C)C)NC(=O)[C@H](CCCCN)NC(=O)[C@H](CCCCN)NC(=O)[C@H](CC(C)C)NC(=O)[C@H](CC(C)C)NC(=O)[C@H](CCCCN)NC(=O)[C@H](CC(C)C)NC(=O)[C@H](CC(C)C)NC(=O)[C@H](CCCCN)NC(=O)[C@H](CCCCN)NC(=O)[C@H](CC(C)C)NC(=O)[C@@H](N)CSSC[C@H](N)C(=O)N[C@@H](CC(C)C)C(=O)N[C@@H](CCC(=O)O)C(=O)N[C@@H](Cc1c[nH]cn1)C(=O)N[C@@H](CC(C)C)C(=O)N[C@@H](CC(C)C)C(=O)N[C@@H](CCC(=O)O)C(=O)N[C@@H](Cc1c[nH]cn1)C(=O)N[C@@H](CC(C)C)C(=O)N[C@@H](CCC(=O)O)C(=O)N[C@@H](Cc1c[nH]cn1)C(=O)N[C@@H](CC(C)C)C(=O)N[C@@H](CC(C)C)C(=O)N[C@@H](CCC(=O)O)C(=O)N[C@@H](Cc1c[nH]cn1)C(N)=O)C(N)=O  IC50 (cell growth or viability, MTT; pH 6): 12.9 µM
C[C@@H](N)[C@H](O)CCCCCCCC(=O)CCCCCCCCCCCCCC[C@@H](O[C@@H]1O[C@H](CO)[C@H](O)[C@H](O)[C@H]1O)[C@H](N)CO  IC50 (cell growth or viability): 22.8 µM
CO[C@@H]1[C@@H](O)[C@H](O[C@H]2CC[C@@]3(C)[C@H](CC[C@@H]4[C@@H]3CC[C@]3(C)[C@@H](C5=CC(=O)OC5)[C@@H](O)C[C@]43O)C2)O[C@H](C)[C@@H]1O[C@@H]1O[C@H](CO)[C@@H](O)[C@H](O)[C@H]1O  IC50 (cell growth or viability, MTT; 48 h): 0.6 µM
CCCCCCCCc1ccc(C(=O)N[C@@H](CO)C(=O)N[C@H](C(=O)N[C@@H](C)C(=O)N[C@H](C(N)=O)[C@@H](C)CC)[C@@H](C)OP(=O)(O)O)cc1  IC50 (cell growth or viability, MTT; 72 h): 38.9 µM
CC(C)C[C@H](NC(=O)[C@H](CC(C)C)NC(=O)[C@H](Cc1c[nH]cn1)NC(=O)[C@H](CCC(=O)O)NC(=O)[C@H](CC(C)C)NC(=O)[C@H](Cc1c[nH]cn1)NC(=O)[C@H](CCC(=O)O)NC(=O)[C@H](CC(C)C)NC(=O)[C@H](CC(C)C)NC(=O)[C@H](Cc1c[nH]cn1)NC(=O)[C@H](CCC(=O)O)NC(=O)[C@@H](N)CC(C)C)C(=O)N[C@@H](CCC(=O)O)C(=O)N[C@@H](Cc1c[nH]cn1)C(N)=O  IC50 (cell growth or viability, MTT; pH 6): > 100 µM
C[C@H]1O[C@@H](O[C@H]2[C@@H](O)C[C@H](O[C@H]3[C@@H](O)C[C@H](O[C@H]4CC[C@@]5(C)[C@H](CC[C@@H]6[C@@H]5C[C@@H](O)[C@]5(C)[C@@H](C7=CC(=O)OC7)[C@@H](O)C[C@]65O)C4)O[C@@H]3C)O[C@@H]2C)C[C@H](O)[C@@H]1O  IC50 (cell growth or viability, MTT; 48 h): 0.63 µM
O=C(Cc1ccc2ccccc2c1)N[C@H](Cc1ccccc1)C(=O)N[C@H](Cc1ccc(O)cc1)C(=O)N[C@H](Cc1ccccc1)C(=O)N[C@H](Cc1ccc(O)cc1)C(=O)O  IC50 (cell growth or viability, MTT): > 500 µg/mL
CC(C)C[C@H](NC(=O)[C@H](CC(C)C)NC(=O)[C@H](CCC(=O)O)NC(=O)[C@H](CCC(=O)O)NC(=O)[C@H](CC(C)C)NC(=O)[C@H](Cc1c[nH]cn1)NC(=O)[C@H](Cc1c[nH]cn1)NC(=O)[C@H](CC(C)C)NC(=O)[C@H](CC(C)C)NC(=O)[C@H](CCC(=O)O)NC(=O)[C@H](CCC(=O)O)NC(=O)[C@@H](N)CC(C)C)C(=O)N[C@@H](Cc1c[nH]cn1)C(=O)N[C@@H](Cc1c[nH]cn1)C(N)=O  IC50 (cell growth or viability, MTT; pH 7.4): > 100 µM
CN(C)c1ccc(-c2nc3ccccc3s2)[c]([Pt][O]C(=O)c2ccccc2P(c2ccccc2)c2ccccc2)c1  IC50 (photoactivated): 1.5 µM
O=C(Cc1ccc2ccccc2c1)N[C@H](Cc1ccccc1)C(=O)N[C@H](Cc1ccccc1)C(=O)N[C@H](Cc1ccc(OP(=O)(O)O)cc1)C(=O)N[C@H](Cc1ccc(OP(=O)(O)O)cc1)C(=O)O  IC50 (cell growth or viability, MTT): > 483 µg/mL
Cc1nn(-c2ccccc2)c(O)c1C(c1ccc([N+](=O)[O-])cc1)c1c(C)nn(-c2ccccc2)c1O  IC50 (cell growth or viability, MTT; 48 h): 38.3 µM
CC1=C(I)C(C)=[N+]2C1=C(c1ccc(OCCn3cc(CNC(=O)CSC[C@H](NC(=O)c4ccc(-c5nnc(C)nn5)cc4)C(=O)N[C@@H](CCCNC(=N)N)C(=O)N[C@@H](CCCNC(=N)N)C(=O)N[C@@H](CCCNC(=N)N)C(=O)N[C@@H](CCCNC(=N)N)C(=O)N[C@@H](CCCNC(=N)N)C(N)=O)nn3)cc1)c1c(C)c(I)c(C)n1[B-]2(F)F  IC50 (phototoxicity; 2 h plus 18 h, 2.5% FBS, with: irradiation 525 nm for 160 s): 0.617 ± 0.024 µM
Cc1nn(-c2ccccc2)c(O)c1C(c1ccc(F)cc1)c1c(C)nn(-c2ccccc2)c1O  IC50 (cell growth or viability, MTT; 48 h): 36.8 µM
CC[C@H](C)[C@H](NC(=O)[C@H](C)NC(=O)[C@H](CCCCN)NC(=O)[C@H](CC(C)C)NC(=O)[C@@H](N)Cc1ccccc1)C(=O)N[C@@H](CCCCN)C(=O)N[C@@H](CCCCN)C(=O)N[C@@H](Cc1ccccc1)C(=O)NCC(=O)N[C@@H](CCCCN)C(=O)N[C@@H](CCC(=O)O)C(=O)N[C@@H](Cc1ccccc1)C(=O)N[C@@H](CCCCN)C(=O)N[C@@H](CCCCN)C(=O)N[C@H](C(=O)NCC(=O)N[C@@H](C)C(=O)N[C@@H](CCCCN)C(=O)N[C@@H](CC(C)C)C(=O)N[C@@H](CCCCN)C(=O)O)[C@@H](C)CC  IC50 (cell growth or viability, MTT): > 128 µg/mL
CC(C)[C@H](NC(=O)[C@H](CCCNC(=N)N)NC(=O)[C@H](CCC(=O)O)NC(=O)[C@H](CCCNC(=N)N)NC(=O)[C@@H](NC(=O)[C@H](CCCNC(=N)N)NC(=O)[C@@H](NC(=O)[C@@H]1CCCN1C(=O)[C@H]1CCCN1C(=O)[C@@H](NC(=O)[C@H](CCCNC(=N)N)NC(=O)[C@@H](NC(=O)[C@H](CCCNC(=N)N)NC(=O)[C@@H](NC(=O)[C@H](CCCNC(=N)N)NC(=O)[C@@H](NC(=O)[C@@H](N)CCCCN)C(C)C)C(C)C)C(C)C)C(C)C)[C@@H](C)O)C(C)C)C(=O)N[C@@H](CCCCN)C(N)=O  IC50: 263 µM
CC(C)C[C@H](NC(=O)[C@H](CCCCN)NC(=O)[C@H](CC(C)C)NC(=O)[C@H](CC(C)C)NC(=O)[C@H](CCCCN)NC(=O)[C@H](CCCCN)NC(=O)[C@H](CC(C)C)NC(=O)[C@H](CC(C)C)NC(=O)[C@H](CCCCN)NC(=O)[C@H](CC(C)C)NC(=O)[C@H](CC(C)C)NC(=O)[C@H](CCCCN)NC(=O)[C@H](CCCCN)NC(=O)[C@@H](N)CC(C)C)C(N)=O  IC50 (cell growth or viability, MTT; pH 7.4): 10.3 µM
Cc1ccc(C(c2c(C)nn(-c3ccccc3)c2O)c2c(C)nn(-c3ccccc3)c2O)cc1  IC50 (cell growth or viability, MTT; 48 h): 38.4 µM
O=C(Cc1ccc2ccccc2c1)N[C@H](Cc1ccc(O)cc1)C(=O)N[C@H](Cc1ccccc1)C(=O)N[C@H](Cc1ccccc1)C(=O)N[C@H](Cc1ccc(OP(=O)(O)O)cc1)C(=O)O  IC50 (cell growth or viability, MTT): 301 µg/mL
NC(=O)CC[C@@H](NC(=O)[C@@H](CCC(N)=O)NC(=O)[C@@H](CC(N)=O)NC(=O)[C@@H](CC(N)=O)NC(=O)CNC(=O)[C@@H](Cc1ccccc1)NC(=O)Cc1ccc2ccccc2c1)C(=O)N[C@H](CC(N)=O)C(=O)N[C@H](Cc1ccc(OP(=O)(O)O)cc1)C(=O)O  IC50: 264 ± 28.4 µM
C#CCCCC[C@H](C)C[C@@H](C)C(=O)N(C)[C@H](C(=O)N(C)[C@@H](Cc1ccccc1)C(=O)N1CCC[C@H]1C(=O)N1CCC[C@H]1C(C)=O)C(C)C  IC50 (cell growth or viability, SRB): ~3 µM and 3 µM
CC1=C(I)C(C)=[N+]2C1=C(c1ccc(OCCn3cc(CNC(=O)CSC[C@H](NC(=O)c4ccc(-c5nnc(C)nn5)cc4)C(=O)N[C@@H](CC4CCCCC4)C(=O)N[C@H](CCCNC(=N)N)C(=O)N[C@@H](CC4CCCCC4)C(=O)N[C@H](CCCNC(=N)N)C(=O)N[C@@H](CC4CCCCC4)C(=O)N[C@H](CCCNC(=N)N)C(N)=O)nn3)cc1)c1c(C)c(I)c(C)n1[B-]2(F)F  IC50 (phototoxicity; 2 h plus 18 h, 2.5% FBS, with: irradiation 525 nm for 160 s): 0.599 ± 0.043 µM
CC(C)C[C@H](NC(=O)[C@H](CC(C)C)NC(=O)[C@H](CCC(=O)O)NC(=O)[C@H](Cc1c[nH]cn1)NC(=O)[C@H](CC(C)C)NC(=O)[C@H](Cc1c[nH]cn1)NC(=O)[C@H](CCC(=O)O)NC(=O)[C@H](CC(C)C)NC(=O)[C@H](CC(C)C)NC(=O)[C@H](CCC(=O)O)NC(=O)[C@H](Cc1c[nH]cn1)NC(=O)[C@@H](N)CC(C)C)C(=O)N[C@@H](CCC(=O)O)C(=O)N[C@@H](Cc1c[nH]cn1)C(N)=O  IC50 (cell growth or viability, MTT; pH 6): > 100 µM
CC(C)C[C@H](NC(=O)[C@H](C)NC(=O)[C@H](CCCCN)NC(=O)[C@H](CC(C)C)NC(=O)[C@H](C)NC(=O)[C@H](CC(C)C)NC(=O)[C@H](CCCCN)NC(=O)[C@H](CC(C)C)NC(=O)[C@H](C)NC(=O)[C@H](CC(C)C)NC(=O)[C@@H](N)CCCCN)C(=O)N[C@@H](CCCCN)C(=O)N[C@@H](C)C(=O)N[C@@H](C)C(=O)N[C@@H](CC(C)C)C(=O)N[C@@H](CCCCN)C(=O)N[C@@H](CC(C)C)C(=O)N[C@@H](C)C(N)=O  IC50 (cytotoxicity): 1 µM
